{"data": "Results gathered from unrelated publications", "note": "Each numbered part is a random draw from the data of one study; scales do not carry over between parts."}
{"data": "Series 1", "target": "Centromere-binding protein 1, full length, N-terminal tag (CBF1, Saccharomyces cerevisiae, UniProt P17106, residues 1-351)", "method": "protein-binding microarray", "molecule type": "double-stranded DNA, one strand shown", "medium": "in vitro", "tested at": "0.8 µM", "notes": "whole 60-bp probe, no competitor", "direction": "higher = stronger binding", "constant ends, left off below": "… GTCTTGATTCGCTTGACGCTGCTG", "UniProt P17106, sequence (whole entry, looked up)": "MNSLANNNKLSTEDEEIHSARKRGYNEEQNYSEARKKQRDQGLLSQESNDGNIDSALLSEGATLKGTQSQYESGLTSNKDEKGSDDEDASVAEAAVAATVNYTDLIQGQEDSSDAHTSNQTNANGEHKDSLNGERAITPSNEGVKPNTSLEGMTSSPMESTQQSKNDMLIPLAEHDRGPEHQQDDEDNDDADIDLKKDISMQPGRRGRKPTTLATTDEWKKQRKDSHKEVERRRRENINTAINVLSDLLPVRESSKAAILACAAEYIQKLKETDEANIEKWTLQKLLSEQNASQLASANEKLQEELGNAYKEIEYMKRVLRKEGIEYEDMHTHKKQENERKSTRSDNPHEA"}
{"Strand": "GAAACGGCATTTTCACTGGTGATGCACGCCCAGTAG", "fluorescence intensity [a.u.]": 533}
{"Strand": "CTAAAAGGTCAGTATTTGGTGATGAAGTTGAATTTC", "fluorescence intensity [a.u.]": 511}
{"Strand": "CTACGAGAAAACTTGCGCGTGCAGTAGGAAAATTTC", "fluorescence intensity [a.u.]": 757}
{"Strand": "CTAGTCTTTAATTGCCTCCTGACTTTGTTTTGTTTC", "fluorescence intensity [a.u.]": 678}
{"Strand": "CTAAATATACTTGTTAACGTGATTAAACGTTTTTTC", "fluorescence intensity [a.u.]": 1110}
{"Strand": "GAAGTACATGTGAAGCATGTGGTAACAGATGGATAG", "fluorescence intensity [a.u.]": 956}
{"Strand": "CTATCGTCGACGTGTCATGTGATCAAGCCAATTTTC", "fluorescence intensity [a.u.]": 8810}
{"Strand": "GAAGACTGTGGTGCTTACGTGATAACAAACAACTAG", "fluorescence intensity [a.u.]": 592}
{"Strand": "CCTAACTACTATAGCCACGTTTGATAGCTTCGTACA", "fluorescence intensity [a.u.]": 543}
{"Strand": "CTAGTATGCTGAACCAACGTGTTGCTTGCCAACTTC", "fluorescence intensity [a.u.]": 499}
{"Strand": "CTAGGTAGATCTCAGCACGTGTGCATGCGCATATTC", "fluorescence intensity [a.u.]": 5490}
{"data": "Series 2", "target": "RING finger protein unkempt homolog, zinc fingers 1-6, SBP tag (UNK, Homo sapiens, UniProt Q9C0B0, residues 30-357)", "method": "RNA Bind-n-Seq", "molecule type": "RNA", "medium": "in vitro", "tested at": "100 nM", "notes": "RNA with constant flanks, vertebrate orthologous sites, ends assumed", "reference": "input RNA pool", "direction": "higher = stronger binding", "constant ends, left off below": "GGGAGUUCUACAGUCCGACGAUC … CAACAGAGGAUUGAGCAUCA", "UniProt Q9C0B0, sequence (30-357, looked up)": "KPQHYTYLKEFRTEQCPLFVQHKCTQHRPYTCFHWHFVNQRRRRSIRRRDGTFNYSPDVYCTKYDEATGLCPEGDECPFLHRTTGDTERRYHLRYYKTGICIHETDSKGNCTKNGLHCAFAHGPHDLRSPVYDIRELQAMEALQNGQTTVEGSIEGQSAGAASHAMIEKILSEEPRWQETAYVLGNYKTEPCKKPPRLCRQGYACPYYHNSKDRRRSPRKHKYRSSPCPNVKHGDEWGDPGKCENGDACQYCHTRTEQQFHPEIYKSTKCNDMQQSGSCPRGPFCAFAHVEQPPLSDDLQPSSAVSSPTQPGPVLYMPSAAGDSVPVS"}
{"Strand": "AUCCCUCAGUGACAGUAUGCCAUCUGUAGCAGAUUCCCACUCUAGUCAUUUUUCUGAAUUUAGUUGUUCUGACCUAGAAAGCAUGAAAACUUCUUGUAGUCAUGGUUCCAAUGAUUAUCA", "bound/input enrichment [ratio]": 3.22}
{"Strand": "CGAUCAUGGAGAAAAAGAUAUUAAAAUAAUUUCAUGGCACUGGCAUUAAUUUAAUUUAUGGUUAGUUUUACAAGUGUUAGUGUUCUUGUUUACAUACAGCAGGAACCGACUCUUAGAGAG", "bound/input enrichment [ratio]": 0.429}
{"Strand": "UUUUAUUGAUCAGGUCUGUAAAUGUGUACUAAAAAAAUCAGAGUUUAUUUAUGAAUUGAAUAGUUUAUUUAAAAAGAAGGUCUUUCCUUAUCCAUGUUGUGGUAUGCAUUAAUUCCAUUU", "bound/input enrichment [ratio]": 0.632}
{"Strand": "GCAGCAGUGAAAAAGCCCUUCUCCCAGCCCCUCUUGCUCUAGGAGAUGCAGACCUUCCCCUAGAAGAGCAAUUAAACUCAAUAAAUUUAUCUUUUCAGGAUGAUCCAGACUCCUCCAGUA", "bound/input enrichment [ratio]": 0.976}
{"Strand": "GAGUGCUUAAGCCGCCAACAGUUAGAAGAUGCUAUUUAUUUGUGUCUGUAAGUUUGUACAUAGUAAUGCCAGCCUUGUUGCUGAAUUUUUUAUUUGUGGGGAGAUGAGUUUGAAUUUUGU", "bound/input enrichment [ratio]": 2.03}
{"Strand": "AUGUAGUUUGUUUUUAAUUUCAAGCAAAAUCUUAUUGUACUUGAACGUGCCCUGUUUUGUUAGCACACCUAGACUUGCUGUAACUGUACUCAUGUCCCAGUAUGUACGUUCUUUCUAUGA", "bound/input enrichment [ratio]": 0.824}
{"Strand": "CCGAAAGGCCAAAUUCCCUCCUCCCUUCUACUGCUUCUACCAACUGGAAGCACAGAAAACUAGAACUUCAUUUAUUUUGUUUUUUAAAGAGAUACACUGAUUUAACAUCCAAUAGGAACU", "bound/input enrichment [ratio]": 1.78}
{"Strand": "AAAUCAUGGCUGCUUAUUAGUGCCUCGGUGAGGUAAAGGCUCCCUGGCGUUCCCUGGUACCAGAGCCAGUCUCCCAAGAAGUCCUUGCGCAUUUCACUUCCUUUCCUUUCACAUGCAAGU", "bound/input enrichment [ratio]": 0.374}
{"data": "Series 3", "target": "RNA binding protein fox-1 homolog 2, RRM domain, GST-SBP tag (RBFOX2, Homo sapiens, UniProt O43251-10, residues 100-194)", "method": "RNA Bind-n-Seq", "molecule type": "RNA", "medium": "in vitro", "tested at": "365 nM", "notes": "natural RNA segment, single round, ends assumed", "reference": "no-protein control", "direction": "higher = stronger binding", "constant ends, left off below": "GGGAGUUCUACAGUCCGACGAUC … UGGAAUUCUCGGGUGCCAA", "Construct (chain)": "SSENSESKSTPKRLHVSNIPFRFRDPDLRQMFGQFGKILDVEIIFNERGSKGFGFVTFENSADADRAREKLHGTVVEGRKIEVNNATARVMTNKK"}
{"Strand": "GUAUUGUGACCUUUUUUAAAAAAAAGGAACUGAGGUUCAGAAUGAUUAAGGGCCUGGCCCCCAGGGUUGUCCAGCUCCAUAAGGUGGAGCUGGGCAAGAUUUUGGGUUUG", "RBNS enrichment (R)": 0.476}
{"Strand": "AUGCAGCCUUUUCAUUCUUGCCAUUAGGAAAUCUGUGGACUUCUAGCCUGUGUUUUAAACCAGCCAUGUUUCCUUGUAUAUUUCCCUACCCGCUGCCCCACAUACCCAGC", "RBNS enrichment (R)": 0.871}
{"Strand": "CUGAGAGUAGGAAGGCCAGGCCCUUGAGGUCCUGUCCCAUGGGACAGCACACACACUACCUGCAAUGGCCUGCCCAUUCCCUUCAGCUAUUUGUCCUUUUCUUACUGGCA", "RBNS enrichment (R)": 0.526}
{"Strand": "AUGGAACAUUGUUUUGAGAUCAAACUCCCCACCCUCACAAAAAUGGCCACGUUGCAAUAAAAAUUGUGGCAUAUUACAGAACGUUGCCUUGUUUUCCUUGGAAAUUUUGC", "RBNS enrichment (R)": 0.74}
{"Strand": "UAUCCAAGAAGUUUUUUGGGCGAAAAUCUUGGAUCAUUUUUAUGUAGCAUGAUUUUCCUUGGGAUGCAAAUCUUAAAACAGUCCUUUAAUAUGAACCAACAAUCUGGAGC", "RBNS enrichment (R)": 0.648}
{"Strand": "CACGAUAUCAGGAGUGAAGCAGACGCUGGCCUUUCCAUGAAUAGCCACCACAUGGCCCAGCAUCUCUGCCAAACACAGUUGCUUCUAGUCUGGCCAGUGCCAAGAGACAA", "RBNS enrichment (R)": 0.289}
{"Strand": "GCCUGUUCAAGGCAGAACCACGACCCUUGACUCCCGGGUGGGGAGGUGGCCAAGGAUGCUGGAGCUGAAUCAGACGCUGACAGUUCUUCAGGCAUUUCUAUUUCACAAUC", "RBNS enrichment (R)": 0.582}
{"Strand": "CCGCGCCAGAGCCUCACAGCCACAGCCACACCAACCUCCCUCCUCUCAAGCAGCAGAAUCAGCCUACGCUCCCCAGCCUCAGUGCCCCUGCCCCACACAGGUCACGCUGG", "RBNS enrichment (R)": 0.477}
{"data": "Further values, each from its own experiment"}
{"Substance": "PhoQ, residues 284 288 289 292 302 303 TLASMF", "target": "PhoP, residues 12 14 15 18 19 LFHKL (Escherichia coli, UniProt P23836)", "test": "Sort-seq, measured: YFP reporter", "test system": "E. coli", "conditions": "PhoQ-PhoP variant library, with: 10 µM Mg2+", "how to read": "reference: high Mg2+ state, higher = stronger signaling", "quantity": "fold induction", "result": 1.22}
{"note": "For quick reference, copied from above (series 2):"}
{"Strand": "CGAUCAUGGAGAAAAAGAUAUUAAAAUAAUUUCAUGGCACUGGCAUUAAUUUAAUUUAUGGUUAGUUUUACAAGUGUUAGUGUUCUUGUUUACAUACAGCAGGAACCGACUCUUAGAGAG", "bound/input enrichment [ratio]": 0.429}
{"Strand": "UUUUAUUGAUCAGGUCUGUAAAUGUGUACUAAAAAAAUCAGAGUUUAUUUAUGAAUUGAAUAGUUUAUUUAAAAAGAAGGUCUUUCCUUAUCCAUGUUGUGGUAUGCAUUAAUUCCAUUU", "bound/input enrichment [ratio]": 0.632}
{"Strand": "GCAGCAGUGAAAAAGCCCUUCUCCCAGCCCCUCUUGCUCUAGGAGAUGCAGACCUUCCCCUAGAAGAGCAAUUAAACUCAAUAAAUUUAUCUUUUCAGGAUGAUCCAGACUCCUCCAGUA", "bound/input enrichment [ratio]": 0.976}
{"Strand": "GAGUGCUUAAGCCGCCAACAGUUAGAAGAUGCUAUUUAUUUGUGUCUGUAAGUUUGUACAUAGUAAUGCCAGCCUUGUUGCUGAAUUUUUUAUUUGUGGGGAGAUGAGUUUGAAUUUUGU", "bound/input enrichment [ratio]": 2.03}
